Experimental data pooled from the literature.
Numbered parts are unrelated; each lists some results of a single study.
Chain of UniProt P46098 (whole entry, looked up): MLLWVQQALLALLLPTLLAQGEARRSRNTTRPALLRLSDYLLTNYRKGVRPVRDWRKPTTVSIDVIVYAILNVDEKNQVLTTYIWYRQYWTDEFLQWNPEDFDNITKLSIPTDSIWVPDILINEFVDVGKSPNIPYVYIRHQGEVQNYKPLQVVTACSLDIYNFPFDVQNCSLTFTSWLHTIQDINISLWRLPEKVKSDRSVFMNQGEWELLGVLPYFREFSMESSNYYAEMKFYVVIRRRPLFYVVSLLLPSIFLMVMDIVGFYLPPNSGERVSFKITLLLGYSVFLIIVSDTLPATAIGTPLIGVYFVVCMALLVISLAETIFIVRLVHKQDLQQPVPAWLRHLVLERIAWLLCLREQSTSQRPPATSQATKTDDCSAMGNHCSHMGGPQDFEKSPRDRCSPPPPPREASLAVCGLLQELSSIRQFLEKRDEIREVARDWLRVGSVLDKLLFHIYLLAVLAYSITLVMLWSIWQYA
Chain of UniProt O14733 (whole entry, looked up): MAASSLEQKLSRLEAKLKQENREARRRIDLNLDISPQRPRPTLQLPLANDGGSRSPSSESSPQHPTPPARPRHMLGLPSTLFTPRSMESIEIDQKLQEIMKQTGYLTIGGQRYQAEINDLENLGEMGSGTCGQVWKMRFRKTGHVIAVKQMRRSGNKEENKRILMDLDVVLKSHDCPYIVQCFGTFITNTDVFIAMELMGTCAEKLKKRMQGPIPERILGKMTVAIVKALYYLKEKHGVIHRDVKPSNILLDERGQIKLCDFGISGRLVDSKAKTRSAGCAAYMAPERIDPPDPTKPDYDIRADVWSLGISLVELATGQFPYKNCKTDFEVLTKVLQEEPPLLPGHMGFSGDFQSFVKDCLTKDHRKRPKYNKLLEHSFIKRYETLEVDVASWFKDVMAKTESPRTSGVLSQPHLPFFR
Chain of UniProt P08912 (whole entry, looked up): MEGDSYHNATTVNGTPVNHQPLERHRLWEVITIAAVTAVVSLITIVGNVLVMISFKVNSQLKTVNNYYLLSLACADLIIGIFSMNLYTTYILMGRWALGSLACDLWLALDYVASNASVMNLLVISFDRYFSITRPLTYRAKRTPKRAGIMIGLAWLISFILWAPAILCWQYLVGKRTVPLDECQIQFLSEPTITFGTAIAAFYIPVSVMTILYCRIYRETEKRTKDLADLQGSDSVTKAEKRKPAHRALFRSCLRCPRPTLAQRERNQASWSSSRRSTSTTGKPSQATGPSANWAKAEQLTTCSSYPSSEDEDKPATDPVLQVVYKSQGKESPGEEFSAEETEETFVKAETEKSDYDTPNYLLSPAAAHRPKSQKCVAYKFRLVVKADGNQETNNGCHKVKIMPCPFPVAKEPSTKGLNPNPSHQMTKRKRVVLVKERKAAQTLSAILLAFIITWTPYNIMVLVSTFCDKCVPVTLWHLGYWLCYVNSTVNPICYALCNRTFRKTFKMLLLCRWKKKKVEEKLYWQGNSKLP
Chain of UniProt Q9UBS0 (whole entry, looked up): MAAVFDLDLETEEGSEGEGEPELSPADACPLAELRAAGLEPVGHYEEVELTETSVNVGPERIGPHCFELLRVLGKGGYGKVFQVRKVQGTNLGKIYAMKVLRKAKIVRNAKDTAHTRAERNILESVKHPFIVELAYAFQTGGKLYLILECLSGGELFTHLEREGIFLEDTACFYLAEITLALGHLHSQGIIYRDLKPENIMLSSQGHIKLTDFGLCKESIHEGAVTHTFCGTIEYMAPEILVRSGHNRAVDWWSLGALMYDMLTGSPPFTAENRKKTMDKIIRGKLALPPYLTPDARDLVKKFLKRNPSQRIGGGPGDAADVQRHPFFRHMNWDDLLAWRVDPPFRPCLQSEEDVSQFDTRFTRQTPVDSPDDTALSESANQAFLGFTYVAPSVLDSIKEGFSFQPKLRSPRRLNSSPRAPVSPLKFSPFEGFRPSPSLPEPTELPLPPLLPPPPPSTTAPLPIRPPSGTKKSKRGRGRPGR
Chain of UniProt P35367 (whole entry, looked up): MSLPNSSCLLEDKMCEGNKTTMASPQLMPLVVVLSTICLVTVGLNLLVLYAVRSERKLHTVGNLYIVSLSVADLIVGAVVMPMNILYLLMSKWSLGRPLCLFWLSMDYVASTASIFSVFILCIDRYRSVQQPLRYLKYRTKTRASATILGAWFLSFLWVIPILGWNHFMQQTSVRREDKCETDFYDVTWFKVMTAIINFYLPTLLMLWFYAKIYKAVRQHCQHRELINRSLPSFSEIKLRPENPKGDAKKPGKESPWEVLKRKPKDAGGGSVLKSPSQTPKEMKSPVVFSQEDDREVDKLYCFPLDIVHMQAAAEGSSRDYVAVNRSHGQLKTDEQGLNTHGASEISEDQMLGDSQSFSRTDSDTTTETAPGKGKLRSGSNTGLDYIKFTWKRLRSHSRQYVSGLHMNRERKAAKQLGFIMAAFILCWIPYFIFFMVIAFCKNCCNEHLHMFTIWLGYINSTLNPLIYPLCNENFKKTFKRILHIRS
Chain of UniProt P50406 (whole entry, looked up): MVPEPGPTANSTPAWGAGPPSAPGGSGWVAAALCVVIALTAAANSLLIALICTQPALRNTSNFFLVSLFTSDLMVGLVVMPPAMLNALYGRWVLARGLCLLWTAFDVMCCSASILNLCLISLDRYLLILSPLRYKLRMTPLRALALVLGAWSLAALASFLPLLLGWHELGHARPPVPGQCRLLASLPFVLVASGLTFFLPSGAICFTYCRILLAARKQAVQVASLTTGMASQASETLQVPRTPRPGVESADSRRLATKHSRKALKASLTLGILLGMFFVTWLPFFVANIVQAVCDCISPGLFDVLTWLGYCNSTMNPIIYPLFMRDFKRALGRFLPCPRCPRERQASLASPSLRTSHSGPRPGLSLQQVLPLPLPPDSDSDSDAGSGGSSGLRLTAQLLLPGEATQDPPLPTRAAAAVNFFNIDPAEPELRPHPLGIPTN
Chain of UniProt P35368 (whole entry, looked up): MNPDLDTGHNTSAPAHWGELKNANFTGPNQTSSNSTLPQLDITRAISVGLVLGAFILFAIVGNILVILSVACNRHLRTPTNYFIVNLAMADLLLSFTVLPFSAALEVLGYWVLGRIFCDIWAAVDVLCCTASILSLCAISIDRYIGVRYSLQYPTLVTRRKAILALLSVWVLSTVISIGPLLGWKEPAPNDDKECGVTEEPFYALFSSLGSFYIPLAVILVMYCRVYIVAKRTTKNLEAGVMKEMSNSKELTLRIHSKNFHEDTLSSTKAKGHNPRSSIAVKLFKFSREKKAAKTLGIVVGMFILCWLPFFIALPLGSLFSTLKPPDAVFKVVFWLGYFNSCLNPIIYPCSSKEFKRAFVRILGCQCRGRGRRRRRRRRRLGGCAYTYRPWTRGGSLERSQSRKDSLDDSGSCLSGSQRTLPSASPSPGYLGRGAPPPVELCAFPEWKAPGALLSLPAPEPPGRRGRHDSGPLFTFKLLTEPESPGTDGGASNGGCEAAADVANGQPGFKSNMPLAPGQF
Chain of UniProt P08172 (whole entry, looked up): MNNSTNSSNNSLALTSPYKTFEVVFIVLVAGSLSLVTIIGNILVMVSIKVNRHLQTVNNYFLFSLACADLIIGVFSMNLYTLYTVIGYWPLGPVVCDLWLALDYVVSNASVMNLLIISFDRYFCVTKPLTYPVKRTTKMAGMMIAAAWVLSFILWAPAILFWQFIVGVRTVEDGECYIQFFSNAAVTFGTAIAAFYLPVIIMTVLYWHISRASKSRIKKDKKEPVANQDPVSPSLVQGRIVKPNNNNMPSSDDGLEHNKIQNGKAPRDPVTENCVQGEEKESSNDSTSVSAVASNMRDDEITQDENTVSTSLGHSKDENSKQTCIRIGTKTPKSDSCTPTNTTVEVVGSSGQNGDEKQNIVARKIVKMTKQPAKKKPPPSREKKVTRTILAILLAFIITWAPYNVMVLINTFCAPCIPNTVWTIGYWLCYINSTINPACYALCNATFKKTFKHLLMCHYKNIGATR
Chain of UniProt Q16513 (whole entry, looked up): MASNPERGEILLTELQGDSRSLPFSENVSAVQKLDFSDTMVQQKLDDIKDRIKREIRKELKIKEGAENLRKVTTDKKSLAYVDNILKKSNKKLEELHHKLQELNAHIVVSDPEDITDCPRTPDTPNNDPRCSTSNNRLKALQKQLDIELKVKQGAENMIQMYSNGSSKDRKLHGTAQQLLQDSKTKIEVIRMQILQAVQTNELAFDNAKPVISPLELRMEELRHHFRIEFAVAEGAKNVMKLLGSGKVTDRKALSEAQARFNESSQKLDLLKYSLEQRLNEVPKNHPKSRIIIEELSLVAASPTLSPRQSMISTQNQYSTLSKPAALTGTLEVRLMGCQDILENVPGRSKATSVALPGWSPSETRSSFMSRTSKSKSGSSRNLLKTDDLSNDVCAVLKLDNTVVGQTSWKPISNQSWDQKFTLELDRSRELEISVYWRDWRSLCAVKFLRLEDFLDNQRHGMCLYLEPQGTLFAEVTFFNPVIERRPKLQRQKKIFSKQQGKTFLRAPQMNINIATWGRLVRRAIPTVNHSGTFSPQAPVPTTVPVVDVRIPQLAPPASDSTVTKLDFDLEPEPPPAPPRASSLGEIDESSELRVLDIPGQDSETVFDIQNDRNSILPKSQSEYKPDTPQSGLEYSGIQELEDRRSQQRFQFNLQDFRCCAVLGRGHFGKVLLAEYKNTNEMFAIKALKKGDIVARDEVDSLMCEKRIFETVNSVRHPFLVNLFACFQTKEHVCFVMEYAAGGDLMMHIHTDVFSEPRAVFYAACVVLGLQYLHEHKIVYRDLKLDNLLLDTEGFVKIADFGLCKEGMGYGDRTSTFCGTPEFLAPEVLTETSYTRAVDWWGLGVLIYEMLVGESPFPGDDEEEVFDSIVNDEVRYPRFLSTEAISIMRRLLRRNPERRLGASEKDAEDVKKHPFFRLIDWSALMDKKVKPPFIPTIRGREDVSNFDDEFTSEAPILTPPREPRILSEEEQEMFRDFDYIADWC
Chain of UniProt Q5BJF2 (whole entry, looked up): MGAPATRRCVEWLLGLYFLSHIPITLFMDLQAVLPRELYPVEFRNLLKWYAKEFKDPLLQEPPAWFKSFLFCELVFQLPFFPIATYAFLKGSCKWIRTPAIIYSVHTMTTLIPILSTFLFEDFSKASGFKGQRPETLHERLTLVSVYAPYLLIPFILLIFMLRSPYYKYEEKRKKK

Series 1
SMILES: Cc1cc2c(-c3ccco3)cnc(N[C@@H]3CCN(C)C[C@H]3C(=O)NC3CCCCC3)c2[nH]c1=O
Tested at: 10 µM
| target | observed | inhibition [%] |
| --- | --- | --- |
| HRH1 (Homo sapiens, UniProt P35367) | ligand displacement | -0.72 |
| HTR3A (Homo sapiens, UniProt P46098) | cell-free assay | 31.8 |
| HTR7 (Homo sapiens, UniProt P34969) | ligand displacement | -15.9 |
| ADRB2 (Homo sapiens, UniProt P07550) | ligand displacement | 19.8 |
| HRH4 (Homo sapiens, UniProt Q9H3N8) | ligand displacement | 15.9 |
| HTR6 (Homo sapiens, UniProt P50406) | ligand displacement | -37.4 |
| ADRA1B (Homo sapiens, UniProt P35368) | ligand displacement | 11.8 |
| DRD4 (Homo sapiens, UniProt P21917) | ligand displacement | 97.9 |
| ADRA2A (Homo sapiens, UniProt P08913) | ligand displacement | -3.97 |
| CHRM2 (Homo sapiens, UniProt P08172) | ligand displacement | 0.27 |
| ADRA1D (Homo sapiens, UniProt P25100) | ligand displacement | 36.6 |
| TMEM97 (Homo sapiens, UniProt Q5BJF2) | ligand displacement | 9.26 |
| ADRA2C (Homo sapiens, UniProt P18825) | ligand displacement | 8.58 |
| CHRM5 (Homo sapiens, UniProt P08912) | ligand displacement | 16.3 |

Series 2
Structure (SMILES): O=C(Nc1cnn(-c2csc(C(=O)NC3COC3)c2)c1)Nc1c(F)cccc1Cl
Observed: enzyme activity
Tested at: 5 µM
Reference: untreated control
| target | remaining activity [%] |
| --- | --- |
| JAK1 (Homo sapiens, UniProt P23458) | 104 |
| MAP2K7 (Homo sapiens, UniProt O14733) | 135 |
| PKN2 (Homo sapiens, UniProt Q16513) | 105 |
| GRK4 (Homo sapiens, UniProt P32298) | 93.5 |
| TESK2 (Homo sapiens, UniProt Q96S53) | 78.6 |
| BMX (Homo sapiens, UniProt P51813) | 94.8 |
| RPS6KB2 (Homo sapiens, UniProt Q9UBS0) | 99.9 |
| SYK (Homo sapiens, UniProt P43405) | 86.9 |
| HIPK3 (Homo sapiens, UniProt Q9H422) | 96.6 |

Series 3
Species: mouse
Sample: microsomes or S9
Tested at: 2 µM
Time: 0.5 h
| Compound | remaining compound [%] |
| --- | --- |
| Cc1nc2c(c(-c3ccc(Cl)cc3)c1CO)CN(C1CCCCC1)C2=O | 47.8 |
| CN(C(=O)CN1C(=O)COc2cc(Cl)c(Cl)cc21)C(CN1CCCC1)c1ccc(-c2ncccn2)cc1 (stereo not drawn) | > 100 |
| Cc1nc(NC(C)Cc2ccccc2)c2sc3nc4c(cc3c2n1)COC(C)(C)C4 (stereo not drawn) | 50.7 |
| Cc1cc(C)c2c(c1)C(Nc1ncc(S(N)(=O)=O)s1)CCO2 (stereo not drawn) | 53.5 |
| O=C(Nc1ccccc1-c1cn2ccccc2n1)c1ccc(Cn2ccnc2)cc1 | 0 |
| CCCN(c1nc2nc(C)c(Cl)c(C)n2n1)S(=O)(=O)c1ccccc1 | 1.37 |
| Cc1cc(C(=O)NCC2(O)CCCC2(C)C)[nH]n1 (stereo not drawn) | 86 |
| CN(C)c1nc(Cl)nc(Oc2ccc(=O)n(C)n2)n1 | 30.8 |
| CC1CC(N(C(=O)Nc2ccc(Cl)c(Cl)c2)c2ccccc2)c2ccccc2N1C(=O)Nc1ccc(Cl)c(Cl)c1 (stereo not drawn) | 0 |
| CCOC(=O)N1C[C@H]2CCCN(C(=O)C3CCCN3S(=O)(=O)c3ccc(C)cc3)[C@@H]2C1 (stereo partly drawn) | 6.62 |
| CCn1c(=O)n(Cc2cc(-c3ccccc3)no2)c2ccccc21 | 0.864 |
| Cc1ccc2c(c1C)NC(=O)CC2c1ccc(O)cc1 (stereo not drawn) | 8.96 |
| CC(C)Oc1nnc(SCc2nc3c(=O)n(C)c(=O)n(C)c3[nH]2)s1 | 59.1 |
| Cc1nn(-c2ncnc3[nH]cnc23)c2c1C(c1cccc(OC(C)C)c1)CC(=O)N2 (stereo not drawn) | 0.307 |
| NC1=NC(c2ccc(Cl)cc2)N2C(=N1)N=C(O)c1ccccc12 (stereo not drawn) | 27.2 |

Series 4
Target: Protein kinase C epsilon type (PRKCE, Homo sapiens, UniProt Q02156)
Observed: enzyme activity
Mode: inhibitor
Tested at: 0.5 µM
Reference: control
Construct (Q02156 1-737): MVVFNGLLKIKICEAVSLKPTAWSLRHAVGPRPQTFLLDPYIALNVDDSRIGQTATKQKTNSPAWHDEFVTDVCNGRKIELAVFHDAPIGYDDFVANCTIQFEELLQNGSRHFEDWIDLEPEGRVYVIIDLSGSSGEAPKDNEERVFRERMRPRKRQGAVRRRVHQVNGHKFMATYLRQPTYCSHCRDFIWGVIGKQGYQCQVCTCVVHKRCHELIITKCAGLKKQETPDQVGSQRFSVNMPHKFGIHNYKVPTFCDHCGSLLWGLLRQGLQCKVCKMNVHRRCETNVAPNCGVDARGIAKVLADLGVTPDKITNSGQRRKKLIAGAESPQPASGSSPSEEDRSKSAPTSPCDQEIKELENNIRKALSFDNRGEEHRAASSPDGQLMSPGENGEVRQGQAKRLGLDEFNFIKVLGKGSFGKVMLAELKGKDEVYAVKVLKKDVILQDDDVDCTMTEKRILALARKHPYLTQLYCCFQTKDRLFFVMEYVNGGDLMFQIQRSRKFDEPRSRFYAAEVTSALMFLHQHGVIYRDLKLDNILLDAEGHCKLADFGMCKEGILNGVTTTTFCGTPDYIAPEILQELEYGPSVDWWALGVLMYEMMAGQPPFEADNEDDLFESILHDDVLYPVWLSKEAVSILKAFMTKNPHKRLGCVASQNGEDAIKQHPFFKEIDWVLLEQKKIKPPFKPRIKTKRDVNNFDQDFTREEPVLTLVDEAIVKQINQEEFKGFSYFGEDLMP
| Structure (SMILES) | remaining activity [%] |
| --- | --- |
| CC#CC(=O)Nc1cc2c(Nc3ccc(F)c(Cl)c3)ncnc2cn1 | 88.3 |
| CC(C)(C)n1nc(Cc2cccc3ccccc23)c2c(N)ncnc21 | 101 |
| COc1cc(Nc2c(C#N)cnc3cc(OCCCN4CCN(C)CC4)c(OC)cc23)c(Cl)cc1Cl | 78 |
| Cc1cncc2cccc(S(=O)(=O)N3CCCN(C(=O)CN)C[C@@H]3C)c12 | 52.4 |
| N#CC(=C(N)Sc1ccc(N)cc1)c1ccccc1C(F)(F)F | 104 |
| NC(=O)c1ccc(N(C(N)=O)c2c(F)cccc2F)nc1-c1ccc(F)cc1F | 101 |
| Nc1ncnc2c1cnn2-c1ccccc1 | 98.3 |
| Cc1cc(Nc2nc(-c3ccccc3)nc3ccccc23)n[nH]1 | 87.1 |
| Fc1ccc(-c2nc3n(c2-c2ccncc2)CCS3)cc1 | 97.7 |
| O=S(=O)(NCCNC/C=C/c1ccc(Br)cc1)c1cccc2cnccc12 | 86.4 |
| O=C1NC(=O)C(c2c[nH]c3ccccc23)=C1c1c[nH]c2ccccc12 | 24 |
| CC[n+]1c(/C=C/N(C)c2ccccc2)n(-c2ccccc2)c2ccc(-c3nc4ccccc4s3)cc21 | 97.7 |
| CSc1nc(-c2ccnc(N[C@@H](C)c3ccccc3)c2)c(-c2ccc(F)cc2)[nH]1 (racemic) | 87.6 |
| CCCC(=O)Oc1ccc2[nH]c(C(=O)c3cc4ccccc4[nH]3)cc2c1 | 91 |
| Oc1ccc(Nc2nc(-c3ccc(Cl)cc3)cs2)cc1 | 99.6 |
| O=C1Cc2c([nH]c3ccc([N+](=O)[O-])cc23)-c2ccccc2N1 | 111 |
| Nc1nccc(-c2c(-c3ccc(F)cc3)ncn2C2CCNCC2)n1 | 105 |
| CCc1[nH]c(-c2ccc(OC)cc2)nc1-c1ccncc1 | 101 |
| CC(=O)c1ccc(N2CCOCC2)cc1O | 93.4 |

Excerpt of the above (series 1):
| target | observed | inhibition [%] |
| --- | --- | --- |
| HRH1 (Homo sapiens, UniProt P35367) | ligand displacement | -0.72 |
| HTR3A (Homo sapiens, UniProt P46098) | cell-free assay | 31.8 |
| HTR7 (Homo sapiens, UniProt P34969) | ligand displacement | -15.9 |
| ADRB2 (Homo sapiens, UniProt P07550) | ligand displacement | 19.8 |
| HRH4 (Homo sapiens, UniProt Q9H3N8) | ligand displacement | 15.9 |
| HTR6 (Homo sapiens, UniProt P50406) | ligand displacement | -37.4 |
